Published values from different studies.
Numbered parts are unrelated; each lists some results of a single study. Substitutions count along the parent as printed.

Series 1
Target: ABI1, truncated, D143A, DHFR fusion (Arabidopsis thaliana)
Technique: DHFR PCA, deep sequencing
Sample: yeast
Setting: methotrexate growth selection, single substitutions
With: (+)-ABA 1.4 µM
Relative to: wild-type fitted maximum
Direction: higher = stronger binding
Starting sequence: PYL1, truncated, DHFR fusion (Arabidopsis thaliana); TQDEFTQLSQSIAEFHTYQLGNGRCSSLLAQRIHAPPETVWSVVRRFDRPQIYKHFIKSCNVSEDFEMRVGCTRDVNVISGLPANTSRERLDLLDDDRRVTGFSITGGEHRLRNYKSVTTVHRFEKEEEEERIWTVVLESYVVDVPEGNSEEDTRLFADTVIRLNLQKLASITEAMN
| Substitution | relative binding score [%] |
| --- | --- |
| T17N | 3.04 |
| S11F | 37.3 |
| E38T | 26.8 |
| V62E | 2.82 |
| L82G | 21.9 |

Series 2
Target: TAR DNA-binding protein 43, full length, His tag (TARDBP, Homo sapiens, UniProt Q13148, residues 1-414)
Technique: RNA Bind-n-Seq
Molecule type: RNA
Sample: in vitro
Concentration: 20 nM
Setting: 6-mer, flanks averaged, single round
With: 150 mM LiCl
Relative to: input library
Direction: higher = stronger binding
| Oligonucleotide | 6-mer enrichment (R) |
| --- | --- |
| UAACAA | 1.09 |
| UACUCA | 0.836 |
| ACUAGG | 0.886 |
| CAUCAU | 0.865 |
| UUCGCC | 0.91 |
| CCCAUG | 1.02 |

Series 3
Target: CCNB1, cyclin fold, Cln2 fusion (human)
Technique: yeast growth competition, sequencing
Sample: yeast
Setting: weak parent motif
Relative to: not given
Direction: higher = stronger binding
Starting sequence: SLBP docking peptide (human); ARYKRKLLINDFG
| Substitution | normalised enrichment score |
| --- | --- |
| ARYKRKLEINDFG [L8E] | 0.801 |
| ARYKRKLLINDVG [F12V] | 0.302 |
| ARYKRKLLINDFW [G13W] | 0.441 |

Single results of other studies
| Molecule | target | assay | test system | setting | scale | measurement | result |
| --- | --- | --- | --- | --- | --- | --- | --- |
| PhoQ, residues 284 288 289 292 302 303 SSLVEF | PhoP, residues 12 14 15 18 19 NIMAP (Escherichia coli, UniProt P23836) | Sort-seq, item: YFP reporter | E. coli | PhoQ-PhoP variant library, with: 10 µM Mg2+ | relative to: high Mg2+ state, higher = stronger signaling | fold induction | 1.05 |

Some of these lines once more (series 2):
| Oligonucleotide | 6-mer enrichment (R) |
| --- | --- |
| UACUCA | 0.836 |
